# Experimental data of several laboratories.
# CTSL: Procathepsin L (CTSL, Homo sapiens, UniProt P07711)
# Sequence of UniProt P07711 (whole entry, looked up): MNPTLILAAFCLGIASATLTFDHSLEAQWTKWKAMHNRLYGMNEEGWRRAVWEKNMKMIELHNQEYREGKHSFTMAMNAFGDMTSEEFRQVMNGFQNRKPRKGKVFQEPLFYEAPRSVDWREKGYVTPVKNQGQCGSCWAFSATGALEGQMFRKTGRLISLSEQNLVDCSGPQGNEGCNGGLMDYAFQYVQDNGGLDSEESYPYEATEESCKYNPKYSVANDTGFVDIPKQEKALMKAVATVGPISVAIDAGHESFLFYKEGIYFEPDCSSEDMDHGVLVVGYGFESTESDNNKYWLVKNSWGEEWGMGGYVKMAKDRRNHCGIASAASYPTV
# GSK3B: Glycogen synthase kinase-3 beta (GSK3B, Homo sapiens, UniProt P49841)
# Sequence of UniProt P49841 (whole entry, looked up): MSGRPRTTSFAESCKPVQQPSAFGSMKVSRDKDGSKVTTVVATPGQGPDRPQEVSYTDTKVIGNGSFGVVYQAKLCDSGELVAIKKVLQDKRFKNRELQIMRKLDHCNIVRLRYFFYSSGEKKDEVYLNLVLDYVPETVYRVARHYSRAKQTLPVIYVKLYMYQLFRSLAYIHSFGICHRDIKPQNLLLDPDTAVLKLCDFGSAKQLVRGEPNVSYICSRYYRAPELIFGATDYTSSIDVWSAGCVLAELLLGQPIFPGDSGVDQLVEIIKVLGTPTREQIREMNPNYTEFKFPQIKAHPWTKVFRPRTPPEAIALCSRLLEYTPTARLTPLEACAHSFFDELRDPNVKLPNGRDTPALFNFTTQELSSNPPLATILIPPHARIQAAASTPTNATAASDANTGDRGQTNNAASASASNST
# ST14: Suppressor of tumorigenicity 14 protein (ST14, Homo sapiens, UniProt Q9Y5Y6)
# Sequence of UniProt Q9Y5Y6 (whole entry, looked up): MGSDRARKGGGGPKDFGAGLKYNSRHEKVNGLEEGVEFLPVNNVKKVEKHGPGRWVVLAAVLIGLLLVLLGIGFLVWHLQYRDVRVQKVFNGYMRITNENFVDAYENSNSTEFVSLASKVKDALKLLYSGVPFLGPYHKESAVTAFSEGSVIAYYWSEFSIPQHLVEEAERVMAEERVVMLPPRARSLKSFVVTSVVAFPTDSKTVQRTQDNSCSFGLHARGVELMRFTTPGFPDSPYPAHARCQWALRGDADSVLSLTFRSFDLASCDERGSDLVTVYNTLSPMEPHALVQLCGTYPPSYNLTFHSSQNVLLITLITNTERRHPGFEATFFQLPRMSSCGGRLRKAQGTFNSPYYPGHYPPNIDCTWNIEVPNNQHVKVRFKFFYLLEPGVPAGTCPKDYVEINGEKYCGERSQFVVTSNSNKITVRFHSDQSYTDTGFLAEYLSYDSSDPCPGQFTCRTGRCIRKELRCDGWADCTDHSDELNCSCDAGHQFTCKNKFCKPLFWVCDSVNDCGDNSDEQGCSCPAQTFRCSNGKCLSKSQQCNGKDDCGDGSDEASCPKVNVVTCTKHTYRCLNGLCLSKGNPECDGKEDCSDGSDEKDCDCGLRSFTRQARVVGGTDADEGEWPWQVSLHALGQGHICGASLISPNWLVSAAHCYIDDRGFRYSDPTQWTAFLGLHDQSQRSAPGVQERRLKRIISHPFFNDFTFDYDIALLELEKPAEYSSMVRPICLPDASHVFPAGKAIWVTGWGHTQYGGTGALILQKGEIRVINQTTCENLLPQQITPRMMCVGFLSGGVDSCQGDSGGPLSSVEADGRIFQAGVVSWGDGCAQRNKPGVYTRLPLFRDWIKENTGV
# NEK6: Serine/threonine-protein kinase Nek6 (NEK6, Homo sapiens, UniProt Q9HC98)
# Sequence of UniProt Q9HC98 (whole entry, looked up): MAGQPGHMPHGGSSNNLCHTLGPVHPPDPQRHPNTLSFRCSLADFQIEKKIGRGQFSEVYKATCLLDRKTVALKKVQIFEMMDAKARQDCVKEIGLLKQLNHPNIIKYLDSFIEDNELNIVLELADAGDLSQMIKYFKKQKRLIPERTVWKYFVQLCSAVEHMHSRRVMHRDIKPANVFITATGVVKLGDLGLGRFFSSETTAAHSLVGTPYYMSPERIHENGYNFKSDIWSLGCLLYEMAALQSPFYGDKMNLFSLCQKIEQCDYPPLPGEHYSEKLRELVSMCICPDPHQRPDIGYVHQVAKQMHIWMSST
# Sequence of UniProt Q9BYT3 (whole entry, looked up): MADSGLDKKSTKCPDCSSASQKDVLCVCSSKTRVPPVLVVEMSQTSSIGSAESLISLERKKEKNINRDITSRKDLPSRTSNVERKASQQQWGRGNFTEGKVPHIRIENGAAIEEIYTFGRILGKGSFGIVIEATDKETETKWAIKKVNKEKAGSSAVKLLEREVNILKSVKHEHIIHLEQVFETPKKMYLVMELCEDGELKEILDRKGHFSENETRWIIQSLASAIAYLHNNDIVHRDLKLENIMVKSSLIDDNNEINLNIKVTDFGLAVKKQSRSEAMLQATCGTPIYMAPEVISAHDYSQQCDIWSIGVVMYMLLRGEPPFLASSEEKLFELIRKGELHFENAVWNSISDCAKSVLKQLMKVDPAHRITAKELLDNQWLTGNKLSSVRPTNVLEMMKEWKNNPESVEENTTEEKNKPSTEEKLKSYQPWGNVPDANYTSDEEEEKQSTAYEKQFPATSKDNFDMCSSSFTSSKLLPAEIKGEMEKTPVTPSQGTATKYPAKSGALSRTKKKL
# Sequence of UniProt P06239 (whole entry, looked up): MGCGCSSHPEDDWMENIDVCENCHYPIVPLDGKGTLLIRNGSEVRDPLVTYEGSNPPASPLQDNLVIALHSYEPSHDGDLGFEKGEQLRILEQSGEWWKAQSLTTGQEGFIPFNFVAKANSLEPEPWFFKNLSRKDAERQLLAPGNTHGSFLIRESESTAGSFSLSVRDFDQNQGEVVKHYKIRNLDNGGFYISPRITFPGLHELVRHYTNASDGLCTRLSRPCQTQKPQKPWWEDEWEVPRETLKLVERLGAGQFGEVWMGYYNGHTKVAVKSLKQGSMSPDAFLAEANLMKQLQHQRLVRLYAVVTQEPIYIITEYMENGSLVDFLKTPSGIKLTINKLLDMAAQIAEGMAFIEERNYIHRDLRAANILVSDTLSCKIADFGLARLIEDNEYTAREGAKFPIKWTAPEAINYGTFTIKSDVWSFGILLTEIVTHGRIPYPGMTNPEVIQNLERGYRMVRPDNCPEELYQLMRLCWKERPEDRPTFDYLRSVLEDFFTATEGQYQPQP
# Sequence of UniProt P05164 (whole entry, looked up): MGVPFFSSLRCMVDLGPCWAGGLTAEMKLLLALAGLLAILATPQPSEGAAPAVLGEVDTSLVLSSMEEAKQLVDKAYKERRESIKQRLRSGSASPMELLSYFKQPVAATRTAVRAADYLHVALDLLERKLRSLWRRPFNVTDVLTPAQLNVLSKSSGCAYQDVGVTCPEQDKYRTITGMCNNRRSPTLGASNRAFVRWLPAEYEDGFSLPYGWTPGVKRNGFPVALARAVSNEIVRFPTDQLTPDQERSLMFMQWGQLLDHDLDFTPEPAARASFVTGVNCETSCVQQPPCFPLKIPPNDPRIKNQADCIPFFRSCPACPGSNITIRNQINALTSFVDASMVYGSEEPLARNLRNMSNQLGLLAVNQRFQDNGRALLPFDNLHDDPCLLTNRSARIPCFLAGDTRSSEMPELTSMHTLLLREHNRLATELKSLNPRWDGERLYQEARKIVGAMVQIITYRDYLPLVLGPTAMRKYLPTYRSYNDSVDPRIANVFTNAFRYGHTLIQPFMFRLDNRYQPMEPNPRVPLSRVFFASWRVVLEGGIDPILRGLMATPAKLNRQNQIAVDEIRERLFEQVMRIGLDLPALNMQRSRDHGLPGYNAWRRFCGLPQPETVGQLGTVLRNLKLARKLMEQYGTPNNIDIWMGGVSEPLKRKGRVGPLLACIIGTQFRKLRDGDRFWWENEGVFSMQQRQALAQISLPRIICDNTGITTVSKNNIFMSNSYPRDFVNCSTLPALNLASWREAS
# Sequence of UniProt Q9HBY8 (whole entry, looked up): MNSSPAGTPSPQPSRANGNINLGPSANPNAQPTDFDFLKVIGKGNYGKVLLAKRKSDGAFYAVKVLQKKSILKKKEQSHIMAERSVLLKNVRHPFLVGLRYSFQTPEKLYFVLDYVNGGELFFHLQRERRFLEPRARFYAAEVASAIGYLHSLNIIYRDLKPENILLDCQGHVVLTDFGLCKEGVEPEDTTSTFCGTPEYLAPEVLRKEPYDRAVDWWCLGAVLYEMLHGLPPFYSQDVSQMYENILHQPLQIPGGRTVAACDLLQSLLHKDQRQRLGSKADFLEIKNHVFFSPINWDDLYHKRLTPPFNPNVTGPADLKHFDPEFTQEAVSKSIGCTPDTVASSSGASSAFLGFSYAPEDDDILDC
# Sequence of UniProt Q9BVS4 (whole entry, looked up): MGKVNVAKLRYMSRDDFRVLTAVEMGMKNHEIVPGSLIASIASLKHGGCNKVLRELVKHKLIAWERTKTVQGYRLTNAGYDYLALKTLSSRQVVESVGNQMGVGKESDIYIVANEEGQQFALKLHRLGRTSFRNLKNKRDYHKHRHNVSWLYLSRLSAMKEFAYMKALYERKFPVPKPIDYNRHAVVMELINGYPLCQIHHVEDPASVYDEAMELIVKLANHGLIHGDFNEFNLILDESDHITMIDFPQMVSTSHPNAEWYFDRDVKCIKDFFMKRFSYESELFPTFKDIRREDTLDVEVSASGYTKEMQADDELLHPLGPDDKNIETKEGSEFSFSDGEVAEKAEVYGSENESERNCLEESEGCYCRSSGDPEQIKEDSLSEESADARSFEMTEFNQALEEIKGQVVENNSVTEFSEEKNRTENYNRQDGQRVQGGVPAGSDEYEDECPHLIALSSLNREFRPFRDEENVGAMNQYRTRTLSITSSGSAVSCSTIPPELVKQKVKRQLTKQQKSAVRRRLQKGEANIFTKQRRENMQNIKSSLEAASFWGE
Compound,target or system,assay,test system,setting,endpoint,result
CC(/C=C/C=C(\C)C(=O)OC1OC(CO)C(O)C(O)C1O)=C\C=C\C=C(C)\C=C\C=C(/C)C(=O)OC1OC(COC2OC(CO)C(O)C(O)C2O)C(O)C(O)C1O (stereo not drawn),CTSL,"enzyme activity, inhibitor",,100 µM,remaining activity,60.6%
CC[C@H](C)[C@H](NC(=O)[C@H](CCC(N)=O)NC(=O)[C@@H](NC(=O)[C@H](CCSC)NC(=O)[C@H](CCCCN)NC(=O)[C@H](CO)NC(=O)[C@@H](NC(=O)[C@H](CCSC)NC(=O)[C@H](CC(C)C)NC(=O)[C@H](CC(N)=O)NC(=O)[C@@H](NC(=O)[C@@H](NC(=O)[C@H](CO)NC(=O)[C@H](CC(C)C)NC(=O)[C@H](C)NC(=O)[C@H](CCCNC(=N)N)NC(=O)[C@H](CCC(=O)O)NC(=O)[C@H](Cc1ccc(O)cc1)NC(=O)[C@H](Cc1ccccc1)NC(=O)[C@H](C)NC(=O)[C@H](CC(N)=O)NC(=O)[C@@H](N)CCCCN)[C@@H](C)CC)[C@@H](C)CC)[C@@H](C)O)C(C)C)C(=O)N[C@@H](CC(N)=O)C(=O)N[C@H](C(=O)O)C(C)C,GSK3B,"enzyme activity, inhibitor, radiometric",,"10 µM, 20 min",remaining activity,103%
COc1cccc(-c2n[nH]c(SCc3ccccn3)n2)c1OC,,,"male Sprague-Dawley rat, plasma","oral, 10 mg/kg, 4 h, single dose",concentration,289 ng/mL
C[C@H](O)[C@@H](NC(=O)[C@H](Cc1cscn1)NC(=O)CCc1ccccc1)C(=O)N[C@@H](CCCNC(=N)N)C(=O)c1nc2ccccc2s1,ST14,"enzyme activity, inhibitor",,0.1 µM,remaining activity,31%
CC(C)CC(=O)N[C@H](C(=O)N[C@H](C(=O)N[C@@H](CC(C)C)[C@@H](O)CC(=O)N[C@@H](C)C(=O)N[C@@H](CC(C)C)[C@@H](O)CC(=O)O)C(C)C)C(C)C,CTSL,"enzyme activity, inhibitor",,100 µM,remaining activity,91.8%
Cc1cc([C@@H](C)Nc2ccccc2C(=O)O)c2nc(N3CCC(F)(F)CC3)c(C#N)c(=O)n2c1,"RIOK2 (Homo sapiens, UniProt Q9BVS4)","binding, competition with immobilised ligand",,1 µM,remaining binding,78%
CCCCC(=O)Nc1ccc(-c2ccc3ncn(CCC)c(=O)c3c2)cn1,NEK6,"binding, competition with immobilised ligand",,0.5 µM,remaining binding,69%
N=C(N)NCCC[C@H](NC(=O)[C@H](Cc1ccc(OCc2ccccc2)cc1)NC(=O)[C@H](Cc1cscn1)NC(=O)CCc1ccccc1)C(=O)c1nc2ccccc2s1,ST14,"enzyme activity, inhibitor",,0.1 µM,remaining activity,17%
CNc1ncc2c(/C=C/C(=O)N3CCC(OC)CC3)nn(Cc3cccc(C(F)(F)F)c3)c2n1,"STK33 (Homo sapiens, UniProt Q9BYT3)","enzyme activity, inhibitor, radiometric",,1 µM,remaining activity,93%
COc1cc(-c2cncc3c2CN(C)Cc2cc(N4CCNCC4)ccc2-3)cc(OC)c1OC,"CAMKK2 (Homo sapiens, UniProt Q96RR4)","enzyme activity, inhibitor",,1 µM,remaining activity,109%
O=C(/C=C/c1ccc(O)cc1)CC(=O)/C=C/c1ccc(O)cc1,CTSL,"enzyme activity, inhibitor",,100 µM,remaining activity,19.7%
Nc1ccn([C@@H]2O[C@H](CO)[C@@H](O)C2(F)F)c(=O)n1,MCF7,"cell growth or viability, MTT",,"1.25 µg/mL, 48 h",viability,55.8%
COc1cc(O)cc(O)c1C(=O)/C=C/c1ccc(O)cc1,CTSL,"enzyme activity, inhibitor",,100 µM,remaining activity,3.26%
CC[C@H](C)[C@H](NC(=O)[C@H](CCC(N)=O)NC(=O)[C@H](CC(C)C)NC(=O)[C@H](CCSC)NC(=O)[C@H](CCCCN)NC(=O)[C@H](CO)NC(=O)[C@H](CO)NC(=O)[C@H](CCSC)NC(=O)[C@H](CC(C)C)NC(=O)[C@H](CC(N)=O)NC(=O)[C@@H](NC(=O)[C@@H](NC(=O)[C@H](CO)NC(=O)[C@H](CC(C)C)NC(=O)[C@H](CS)NC(=O)[C@H](CCCNC(=N)N)NC(=O)[C@H](CC(=O)O)NC(=O)[C@H](Cc1c[nH]c2ccccc12)NC(=O)[C@H](Cc1ccccc1)NC(=O)[C@H](C)NC(=O)[C@H](CCC(=O)O)NC(=O)[C@@H](N)CCCCN)C(C)C)[C@@H](C)CC)C(=O)N[C@@H](CC(N)=O)C(=O)N[C@@H](C)C(=O)O,GSK3B,"enzyme activity, inhibitor, radiometric",,"250 µM, 20 min",remaining activity,119%
C1=C/COCc2cc(ccc2OCCN2CCCC2)Nc2nccc(n2)-c2cccc(c2)COC/1,NEK6,binding,,0.1 µM,remaining binding,61%
C=CC(=O)N1CCC(COCC(=O)N2CCN(c3nc(-c4cnc(N)nc4C(F)F)nc(N4CCOC[C@@H]4C)n3)CC2)CC1,"SGK2 (Homo sapiens, UniProt Q9HBY8)","binding, competition with immobilised ligand",,1 µM,remaining binding,100%
CS(=O)(=NC#N)c1ccccc1Nc1nc(Nc2ccc(CO)nc2)ncc1Cl (stereo not drawn),"LCK (Homo sapiens, UniProt P06239)","enzyme activity, inhibitor",,1 µM,remaining activity,35.8%
CC(C)OCCn1c(=S)[nH]c(=O)c2[nH]ccc21,"Myeloperoxidase (MPO, Homo sapiens, UniProt P05164)","enzyme activity, inhibitor",,0.625 µM,remaining activity,44.9%

# For quick reference, copied from above:
Compound,target or system,assay,test system,setting,endpoint,result
CC(/C=C/C=C(\C)C(=O)OC1OC(CO)C(O)C(O)C1O)=C\C=C\C=C(C)\C=C\C=C(/C)C(=O)OC1OC(COC2OC(CO)C(O)C(O)C2O)C(O)C(O)C1O (stereo not drawn),CTSL,"enzyme activity, inhibitor",,100 µM,remaining activity,60.6%
Nc1ccn([C@@H]2O[C@H](CO)[C@@H](O)C2(F)F)c(=O)n1,MCF7,"cell growth or viability, MTT",,"1.25 µg/mL, 48 h",viability,55.8%
